Results gathered from unrelated publications.
Every numbered part comes from another study and shows a few of its results, in no order.

Sample 1 — method: RNA Bind-n-Seq; molecule type: RNA; sample: in vitro; tested at: 365 nM; baseline: no-protein control; direction: higher = stronger binding; endpoint: RBNS enrichment (R)
Target: RNA binding protein fox-1 homolog 2, RRM domain, GST-SBP tag (RBFOX2, Homo sapiens, UniProt O43251-10, residues 100-194)
Setting: natural RNA segment, single round, ends assumed
All sequences stand within: GGGAGUUCUACAGUCCGACGAUC … UGGAAUUCUCGGGUGCCAA
Residues (chain): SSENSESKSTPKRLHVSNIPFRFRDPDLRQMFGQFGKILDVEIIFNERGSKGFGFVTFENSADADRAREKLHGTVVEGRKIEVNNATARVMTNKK
AGGAGUCCAAACAGGGAUGCCAGAGGAAGCUUUCCGUUUUCCUAGCCAACUUGUGUUCUGGGUUUGAAAAAGACCCACCACAAAUGCUUUUUCUAUUUUCUGAUUUAAAA: 0.332
UUUCUUAGAAUACUUGCAAUUACUAAUGACCCCUUCCCUUUCCCUCCUGCUGCCCUGUCCACCCUCUUUCCCCUUCUAACAUCCUUAGAGGGAUGAAAUCUCAGCAUAUG: 0.573
CCUAGCCCAGCCUUCCCACUGCCCCAGGAAAAGCUCUUCUCCUGGCCACCUCUGCCCCCCAGCACCUCAAACUUGCAUGGCUGGGCUGUGGCCUCUGCGGCCAGGAAGCC: 7.71
UCUGUUUGGAAGACCAGAAUGUGAAGACAAGUAGUAGAAGAAAAUGAAUGCUGCUGCUGAGACUGAAGACCAGUAUUUCAGAACUUUGAGAAUUGGAGAGCAGGCACAUC: 0.728
GUGAGCAGAGCCAGAAGGUAGGUCUGUUCAGAGUCUGUGCCCCUGGACCUGGGGAGUGGAUAUCAGAUGGGAUAUCUCCUUCCAUUCCCCGGUCCAGGGGAGAGUCACUA: 0.4
GACCGGUUGGAAGUAGAAGAAACAUCUCUCCCUGCACCCGAAUGUCCAGUGGAGCCUCAAGUUUUCCAUCCUGCUGUUAAGUUACUUUCAAAUAGUUUAAUGUUUUAGUC: 0.895
CCACUGGACCACUGGGGGCACAAUGGAGACUUCUCUUCAGAAUGGUUUUUGUUCUGUCUACCCUCUCAGGGAUAUGAGAUUCUCCCAGGCUUGUUUCCUGUCAGCCAUCU: 0.292
AAACAUCUACUUCUCAGUCUAAGGCACACUAAGUACUAGUAGCAAGCCUGUGAGCCUAGGAGACUGUGUGUGUGAGGUAAAGGGUGUAGUGGUGGCCUGGGCUGCUGAUG: 0.867

Sample 2 — method: aptamer microarray, sandwich; molecule type: DNA with 2'F-ANA; sample: in vitro; tested at: 200 nM; added: Cy3 exosite-II aptamer, 400 nM; direction: higher = stronger binding; endpoint: mean fluorescence intensity; oligonucleotide: GGTTGGTGTGGTTGG
Target: Prothrombin, mature alpha-thrombin (F2, Homo sapiens, UniProt P00734)
Setting: whole 15-mer aptamer, many near background
2'F-ANA at 3 4 5 6 7 8 14 15: 50.1 a.u.
2'F-ANA at 6 8 9 11 12 14: 204 a.u.
2'F-ANA at 1 5 7 9 10 11 12: 52.1 a.u.
2'F-ANA at 1 2 3 8 9 12 13 14 15: 101 a.u.
2'F-ANA at 2 4 6 9 11 14: 77.3 a.u.
2'F-ANA at 2 3 4 6 9 11 14 15: 213 a.u.
2'F-ANA at 3 7 8 12 13 15: 1330 a.u.
2'F-ANA at 1 6 7 8 9 13 15: 142 a.u.
2'F-ANA at 5 7 9 10 11 12: 53.9 a.u.
2'F-ANA at 1 2 3 4 5 6 9 10 13: 49.5 a.u.
2'F-ANA at 1 4 8 11 12 13 14: 56.2 a.u.
2'F-ANA at 5 6 9 10 14 15: 84.1 a.u.
2'F-ANA at 2 4 8 9 13: 210 a.u.
2'F-ANA at 1 3 6 10 11 12 13 14 15: 59.7 a.u.
2'F-ANA at 1 2 3 4 5 7 8 9 10 11 14: 59.4 a.u.
2'F-ANA at 1 3 4 5 6 8 9 11: 62.6 a.u.
2'F-ANA at 5 6 7 9 10 12 14 15: 44.6 a.u.
2'F-ANA at 1 2 3 5 6 7 8 9 10 11 13 14: 48.6 a.u.
2'F-ANA at 1 3 4 5 9 10 13: 44.5 a.u.
2'F-ANA at 2 4 6 10 12 13: 94.7 a.u.
2'F-ANA at 1 2 5 8 11 12 14 15: 45.6 a.u.
2'F-ANA at 1 2 4 7 8 9 12 14: 61.6 a.u.
2'F-ANA at 1 3 8 9 10 12 13: 116 a.u.
2'F-ANA at 3 4 7 15: 869 a.u.
2'F-ANA at 1 3 4 7 8 10 11: 65.9 a.u.

Sample 3 — method: RNA Bind-n-Seq; molecule type: RNA; sample: in vitro; tested at: 100 nM; baseline: input RNA pool; direction: higher = stronger binding; endpoint: bound/input enrichment
Target: RING finger protein unkempt homolog, zinc fingers 1-6, SBP tag (UNK, Homo sapiens, UniProt Q9C0B0, residues 30-357)
Chain of UniProt Q9C0B0 (30-357, looked up): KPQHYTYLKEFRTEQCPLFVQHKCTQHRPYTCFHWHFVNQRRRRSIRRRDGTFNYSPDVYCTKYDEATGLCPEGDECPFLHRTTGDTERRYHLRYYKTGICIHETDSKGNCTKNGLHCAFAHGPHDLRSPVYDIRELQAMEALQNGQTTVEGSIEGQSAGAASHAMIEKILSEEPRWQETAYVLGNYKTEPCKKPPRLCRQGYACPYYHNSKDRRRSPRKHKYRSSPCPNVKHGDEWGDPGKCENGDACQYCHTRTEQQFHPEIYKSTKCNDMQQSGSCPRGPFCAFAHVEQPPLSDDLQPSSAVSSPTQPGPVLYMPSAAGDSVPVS
Setting: RNA with constant flanks, vertebrate orthologous sites, ends assumed
All sequences stand within: GGGAGUUCUACAGUCCGACGAUC … CAACAGAGGAUUGAGCAUCA
AUUUAGAAUCUUAAUAAAUUGCUCCAAGGUUCCUGAAGUCAUUUCUGUAGGAUCGGACCAUAGGAUGGUGACGUCUUUUUUUUUAAUUUGUGUACUGUUUCCAAAGUUAUAUUUAAAGAG: 2.29 ratio
CUUAAAGUCAUUUUUCCACAUUUCCUGUAAAUAAUGGAUAAUCAUUUUUAUUUUAUUUUUAAGUACUGUUUUAACAAUGUGGAUAGACCAUAAAUGUACUUGCUGAAUUCAUUCAUGUUU: 0.166 ratio
CCGAAAGGCCAAAUUCCCUCCUCCCUUCUACUGCUUCUACCAACUGGAAGCACAGAAAACUAGAAUUUCAUUUAUUUUGUUUUUAAAAUAUAUAUGUUGAUUUCUUGUAACAUCCAAUAG: 0.655 ratio
UAAUGUGUUUUUAUUUACUGAAGAUCGUUUUGUGCUAAGAAUUGUGUUAGAUUUAAAAAUAAGAGGAUUAGUUCCUCUUUGUUGUGUUGAUUUCAUUGUUGAAAAUAAAUAGAACUUUGU: 0.667 ratio
CAGUGCCAUGGUUGAUGGGUCUGAGCUCAAAAAAGUGCGAUCCAAUUCGCGCAUUUACCAUCGCUACUUUCUCCUUGACGCCGACAUGCAGUCUUUGAGAUGGGAACCUUCAAAGAAGGA: 0.156 ratio
AUCCUUUUGGAGUGUCCCUGGCCAGGACCAAGAACCAGACAUUUCAUGGAGGACCUGUACUUAAAAGGCUUUUUUAAACAGCCGUACAGGAGGUGUCACCUCGCAGGCGAGCGGACUUCU: 0.26 ratio
UUACAGUCAUUGAUGGACUCUAUUUUUUUAUUAUUACUUGGACCUUGGUCGUUUUUAUACUAGCAAAAUGUCUUGUUUUAAUUUGUGUUUUUUGGGGGAGGGAGUGAAACUUGCUGAUUC: 2.66 ratio
GUCCUUUCACACUGUCCCUGGCCAGGUUCGAGGACUGGAGACUUCACUGAGGACCCACAUUUCAGUUUUCUACAUCGUUGUCCAGAAAGAGAUGUGACUGAAAUGGUCGAGUGUCUCUUU: 0.294 ratio

Sample 4 — method: protein binding microarray; molecule type: double-stranded DNA, one strand shown; sample: in vitro; tested at: not given; baseline: not given; direction: higher = stronger binding; endpoint: E-score
Target: Histone acetyltransferase KAT6A, both winged helices, GST fusion (KAT6A, Homo sapiens, UniProt Q92794, residues 1-181)
Setting: 8-mer, flanks averaged, mean of 2 arrays, mostly near background
Construct (chain): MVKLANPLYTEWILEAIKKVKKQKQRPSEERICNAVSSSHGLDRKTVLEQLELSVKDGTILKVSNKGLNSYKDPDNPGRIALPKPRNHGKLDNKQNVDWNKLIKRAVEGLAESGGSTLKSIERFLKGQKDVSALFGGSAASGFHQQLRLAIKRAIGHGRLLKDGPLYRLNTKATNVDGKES
AGGAGGGA: -0.196
CTGGTCGA: -0.101
GCACGAGC: 0.0589
AGATCCCG: 0.194
GAGCAACC: -0.232
GATCATCC: -0.0738
TCGAAGAA: -0.0966
ACATGCGG: 0.28
AAATCGTA: -0.0676
CGATACTC: 0.0945
ACGCTATG: 0.105
GACATTCA: 0.0583
AGTTCCCA: -0.0902
ACTGGATC: -0.0614
AGGTGCTA: -0.0927
GGCCATAA: -0.16

Excerpt of the above (sample 1):
CCACUGGACCACUGGGGGCACAAUGGAGACUUCUCUUCAGAAUGGUUUUUGUUCUGUCUACCCUCUCAGGGAUAUGAGAUUCUCCCAGGCUUGUUUCCUGUCAGCCAUCU: 0.292
AGGAGUCCAAACAGGGAUGCCAGAGGAAGCUUUCCGUUUUCCUAGCCAACUUGUGUUCUGGGUUUGAAAAAGACCCACCACAAAUGCUUUUUCUAUUUUCUGAUUUAAAA: 0.332
GACCGGUUGGAAGUAGAAGAAACAUCUCUCCCUGCACCCGAAUGUCCAGUGGAGCCUCAAGUUUUCCAUCCUGCUGUUAAGUUACUUUCAAAUAGUUUAAUGUUUUAGUC: 0.895
UUUCUUAGAAUACUUGCAAUUACUAAUGACCCCUUCCCUUUCCCUCCUGCUGCCCUGUCCACCCUCUUUCCCCUUCUAACAUCCUUAGAGGGAUGAAAUCUCAGCAUAUG: 0.573
CCUAGCCCAGCCUUCCCACUGCCCCAGGAAAAGCUCUUCUCCUGGCCACCUCUGCCCCCCAGCACCUCAAACUUGCAUGGCUGGGCUGUGGCCUCUGCGGCCAGGAAGCC: 7.71
GUGAGCAGAGCCAGAAGGUAGGUCUGUUCAGAGUCUGUGCCCCUGGACCUGGGGAGUGGAUAUCAGAUGGGAUAUCUCCUUCCAUUCCCCGGUCCAGGGGAGAGUCACUA: 0.4
AAACAUCUACUUCUCAGUCUAAGGCACACUAAGUACUAGUAGCAAGCCUGUGAGCCUAGGAGACUGUGUGUGUGAGGUAAAGGGUGUAGUGGUGGCCUGGGCUGCUGAUG: 0.867
